Assay results from different studies.
Each line is one published result; not all experiments were run side by side. Numbers after ± are the reported error.

SMILES	tested on	assay	system	conditions	how to read	measurement	value
C=C(NC(=O)c1csc(-c2nc3c(cc2O)-c2nc(cs2)C(=O)NC(C(C)O)C(=O)NC(=C(C)OC)c2nc(cs2)C(=O)NC2c4nc(cs4)C(=O)NC(COC(=O)c4c5c6c(cccc6n4O)COC(=O)C(OC4CC(C)(O)C(N(C)C)C(C)O4)C2OC5)c2nc-3cs2)n1)C(N)=O (stereo not shown)	–	–	ICR mice, Streptococcus pneumoniae ATCC 49169 infected, immunocompromised, blood	intravenous, 8 mg/kg/day once daily	–	Cmax	736 ng/mL
CC(C)(C)c1ccc(C(=O)N2Cc3cccnc3Nc3ccccc32)cc1	IDH1 R132H human	2-HG production, RapidFire mass spectrometry	MOG-G-UVW overexpressing IDH1 R132H	–	–	IC50	1.27 µM
C=CC(=O)Nc1cccc(Cn2ncc3cnc(Nc4cnn(CCOC)c4)nc32)c1	SRPK2 human	binding, KINOMEscan	–	100 nM	lower = stronger binding	percent of control	65%
C[n+]1ccc(/C=N/NC(=O)c2cccc(C(=O)N/N=C/c3cc[n+](C)c4ccccc34)n2)c2ccccc21	hairpin duplex DNA	UV melting	–	1 molar equivalents, DNA 3 µM	–	ΔTm	0.5 °C
CC(=O)c1cnc(N)nc1N1CC[C@H]1c1nn2ccc(Cl)c2c(=O)n1-c1ccccc1	PI3Kδ	KiNativ	dog white blood cell lysate	1 µM	–	binding	> 90%
Fc1ccc(Nc2nc(NC3CCCCC3)c3cc(Br)ccc3n2)cc1F	β2AR/β1AR TM7 chimera	β-arrestin2 recruitment, antagonist, BRET	–	–	relative to: isoprenaline maximal response	maximal inhibition	-4.4%
CC(C)(O)c1ccn2c(-c3ccc(F)c(-c4ccc(F)cc4C#N)c3)cnc2c1F	GABAA receptor α1 R214C human	cell surface biotinylation	HEK-293T	5 µM, 24 h, added: hispidulin 10 µM	relative to: DMSO	surface expression	1.75 ± 0.33 fold
CC(=O)NCCCCCNc1nc(NCCCCCCN(C)C)c2cc(NC(=O)/C=C/CN(C)C)ccc2n1	Histone-lysine N-methyltransferase SETDB1 (SETDB1, Homo sapiens, UniProt Q15047)	cell-free assay, inhibitor, FP	–	1 µM	–	remaining signal	27.3%
Cc1cn(CC(=O)N(CCNC(=O)CN(CCNC(=O)CN(CCNC(=O)CN(CCNC(=O)CN(CCNC(=O)CN(CCNC(=O)CN(CCNC(=O)CN(CCN)C(=O)Cn2cnc3c(=O)[nH]c(N)nc32)C(=O)Cn2cnc3c(N)ncnc32)C(=O)Cn2cc(C)c(=O)[nH]c2=O)C(=O)Cn2cnc3c(=O)[nH]c(N)nc32)C(=O)Cn2cc(C)c(=O)[nH]c2=O)C(=O)Cn2cnc3c(=O)[nH]c(N)nc32)C(=O)Cn2cnc3c(N)ncnc32)CC(=O)NCCN(CC(=O)NCCOCCOCC(N)=O)C(=O)Cn2cnc3c(N)ncnc32)c(=O)[nH]c1=O	mismatched DNA TC	duplex formation, UV melting	–	–	relative to: complementary DNA	ΔTm	-19.2 °C
Cc1ncsc1-c1ccc(C(C)NC(=O)C2CC(O)CN2C(=O)C(NC(=O)CCCCCCCCCCN2CCCC(Nc3ncc(Cl)c(Nc4ccccc4S(=O)(=O)C(C)C)n3)C2)C(C)(C)C)cc1 (stereo not shown)	22Rv1	RNA-seq, refers to: ZBED5 mRNA	–	concentration not given	relative to: DMSO	log2 fold change	-1.25
Nc1ncc(-c2cc(-c3cnn(CC(F)(F)F)c3)ncc2F)nc1C(=O)NC1CNCC(F)C1 (stereo not shown)	ULK1	KINOMEscan	–	1 µM	relative to: DMSO control	remaining binding	95%
CNS(=O)(=O)Nc1nccc(Cc2c(C)c3ccc(Oc4ncccc4F)cc3oc2=O)c1F	KARPAS-422	cell viability	–	7 days	–	IC50	> 1 µM
Fc1ccc(Nc2nc(NC3CCCCC3)c3ccccc3n2)cc1F	β2AR/β1AR TM7 chimera	β-arrestin2 recruitment, antagonist, BRET	–	–	relative to: isoprenaline maximal response	maximal inhibition	1.8%
C=C1CC[C@H](OCCCNC(=O)CCOCCOCCOCCOCCOCCOCCOCCOCCOCCOCCOCCOCCOCCOCCOCCOCCOCCOCCOCCOCCOCCOCCOCCOCCOCCOCCOCCOCCOCCOCCOCCOCCOCCOCCOCCOCCNC(=O)CCN2C(=O)CC(SC[C@H](NC(=O)[C@H](Cc3ccccc3)NC(=O)[C@H](CC(N)=O)NC(=O)[C@H](Cc3c[nH]cn3)NC(=O)[C@@H](NC(=O)[C@H](CC(=O)O)NC(=O)[C@H](CCC(N)=O)NC(=O)[C@H](CC(C)C)NC(=O)[C@H](CCCCN)NC(=O)[C@H](CCCCN)NC(=O)[C@H](CCCNC(=N)N)NC(=O)[C@H](CC(C)C)NC(=O)[C@H](Cc3c[nH]c4ccccc34)NC(=O)[C@H](CCC(=O)O)NC(=O)[C@@H](NC(=O)[C@H](CCCNC(=N)N)NC(=O)[C@H](CCC(=O)O)NC(=O)[C@H](CCSC)NC(=O)[C@H](CO)NC(=O)[C@H](CC(N)=O)NC(=O)[C@H](CC(C)C)NC(=O)[C@H](Cc3c[nH]cn3)NC(=O)[C@H](CCCCN)NC(=O)CNC(=O)[C@H](CC(C)C)NC(=O)[C@H](CC(N)=O)NC(=O)[C@H](Cc3c[nH]cn3)NC(=O)[C@H](CCSC)NC(=O)[C@H](CC(C)C)NC(=O)[C@H](CCC(N)=O)NC(=O)[C@@H](NC(=O)[C@H](CCC(=O)O)NC(=O)[C@H](CO)NC(=O)[C@@H](NC(=O)[C@@H](N)CO)C(C)C)[C@@H](C)CC)C(C)C)C(C)C)C(=O)O)C2=O)C/C1=C/C=C1\CCC[C@]2(C)[C@@H]([C@H](C)CCCC(C)(C)O)CC[C@@H]12 (stereo partly shown)	–	–	male cynomolgus monkey, plasma	subcutaneous, 0.02 mg/kg, single dose	–	Cmax	61.1 ng/mL
COC1CN([C@H]2CC[C@H]([C@@]3(C)Oc4c(Cl)cc(C(=O)NCc5c(SC)cc(C)[nH]c5=O)c(C)c4O3)CC2)C1	–	RNA-seq, refers to: TUFT1 mouse homolog	mouse, HT-1376 xenograft, whole blood	dose not given	relative to: vehicle	log2 fold change	0.189
Fc1ccc(Nc2nc(NC3CCCCC3)c3cc(C(F)(F)F)ccc3n2)cc1F	β2AR/β1AR ECL2 chimera	β-arrestin2 recruitment, antagonist, BRET	–	added: isoprenaline 1 µM	–	pIC50	6.4
C=CC(=O)N1[C@@H](c2ccc3c(c2)OCO3)c2[nH]c3ccccc3c2C[C@H]1C(=O)N1CCN(C)CC1	human cyclin E1 N112C-3xFLAG:CDK2	co-IP with TMT proteomics, refers to: SNRPD3	–	concentration not given, P62318	relative to: wild type DMSO	relative co-enrichment	132%
c1ccc(-c2n[nH]cc2-c2ccnc3ccccc23)nc1	POM1 (Candida albicans)	kinase binding, MIB/MS competition	Candida albicans lysate	10 µM	relative to: DMSO	log2 fold change	-1.01
C[n+]1cc(NC(=O)c2ccc3ccc4ccc(C(=O)Nc5cc6ccccc6[n+](C)c5)nc4c3n2)cc2ccccc21	hairpin duplex DNA	UV melting	–	2 molar equivalents, DNA 3 µM	–	ΔTm	0.6 °C

For quick reference, copied from above:
SMILES	tested on	assay	system	conditions	how to read	measurement	value
CC(C)(C)c1ccc(C(=O)N2Cc3cccnc3Nc3ccccc32)cc1	IDH1 R132H human	2-HG production, RapidFire mass spectrometry	MOG-G-UVW overexpressing IDH1 R132H	–	–	IC50	1.27 µM
C=CC(=O)N1[C@@H](c2ccc3c(c2)OCO3)c2[nH]c3ccccc3c2C[C@H]1C(=O)N1CCN(C)CC1	human cyclin E1 N112C-3xFLAG:CDK2	co-IP with TMT proteomics, refers to: SNRPD3	–	concentration not given, P62318	relative to: wild type DMSO	relative co-enrichment	132%
CNS(=O)(=O)Nc1nccc(Cc2c(C)c3ccc(Oc4ncccc4F)cc3oc2=O)c1F	KARPAS-422	cell viability	–	7 days	–	IC50	> 1 µM
